# Assay results gathered from unrelated publications.
# Numbered parts are unrelated; each lists some results of a single study.

# Set 1 — technique: protein binding microarray; molecule type: double-stranded DNA, one strand shown; medium: in vitro; concentration: not given; relative to: not given; direction: higher = stronger binding
# Target: Histone acetyltransferase KAT6A, winged helix 1, GST fusion (KAT6A, Homo sapiens, UniProt Q92794, residues 1-85)
# Setting: 8-mer, flanks averaged, mean of 2 arrays, mostly near background
# Residues (chain): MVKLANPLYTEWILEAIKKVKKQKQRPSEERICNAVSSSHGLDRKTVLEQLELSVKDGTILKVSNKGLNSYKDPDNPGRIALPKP
Strand,E-score
TACGTTAA,-0.0371
CCACCGAA,-0.143
AACACTCG,-0.018
CTAGCCCC,-0.0496
ACTGTAGA,-0.204
AAGCGACT,-0.118
AACTAGAG,0.053
AAGAGATA,-0.15
CATGACTA,-0.0715
GGCCCTCA,0.0166
AGATCAAT,-0.208
ACTGAGAC,-0.156
CGGGGTCC,0.3
CGGGTACG,0.343
CAGGGGTA,-0.187
GGAGTATA,0.117

# Set 2 — technique: aptamer microarray, sandwich; molecule type: DNA with 2'F-ANA; medium: in vitro; concentration: 200 nM; added: Cy3 exosite-II aptamer, 400 nM; direction: higher = stronger binding; strand: GGTTGGTGTGGTTGG
# Target: Prothrombin, mature alpha-thrombin (F2, Homo sapiens, UniProt P00734)
# Setting: whole 15-mer aptamer, many near background
Modification,mean fluorescence intensity [a.u.]
2'F-ANA at 1 2 4 5 9 10 11 13 14 15,49
2'F-ANA at 1 3 11 15,284
2'F-ANA at 1 2 5 6 7 8 9 10 12 13 15,49.3
2'F-ANA at 7 11 12 13,751
2'F-ANA at 2 4 8 10 12 13,109
2'F-ANA at 2 4 5 6 7 11 13 14 15,67.7
2'F-ANA at 1 2 4 5 12,124
2'F-ANA at 1 4 5 6 10 11 12,47.9
2'F-ANA at 1 3 4 6 8 9 11 13 15,153
2'F-ANA at 2 3 4 5 6 10 11 12 13 15,52.6
2'F-ANA at 3 4 7 9 14,322
2'F-ANA at 1 3 6 10 11 14,58.4
2'F-ANA at 1 2 3 4 5 14,40.6
2'F-ANA at 2 3 6 7 8 9 10 13 14,267
2'F-ANA at 1 2 6 8 9 11 13,116
2'F-ANA at 1 3 5 8 9 11 12 13,81.2
2'F-ANA at 1 2 5 6 8 9 11 12 15,91.3
2'F-ANA at 1 2 3 5 7 14 15,43.6
2'F-ANA at 1 2 3 4 5 9 10 11 14 15,45.4
2'F-ANA at 2 3 4 6 7 10,269
2'F-ANA at 3 4 7 8 12 14 15,538
2'F-ANA at 1 2 3 4 5 11 12 14,47.3
2'F-ANA at 2 4 8 9 10 11 12 13 14 15,59.3
2'F-ANA at 1 3 6 7 12 15,494
2'F-ANA at 1 3 6 10 11 12 13 15,102

# Set 3 — technique: RNA Bind-n-Seq; molecule type: RNA; medium: in vitro; concentration: 365 nM; relative to: no-protein control; direction: higher = stronger binding
# Target: RNA binding protein fox-1 homolog 2, RRM domain, GST-SBP tag (RBFOX2, Homo sapiens, UniProt O43251-10, residues 100-194)
# Setting: natural RNA segment, single round, ends assumed
# Construct (chain): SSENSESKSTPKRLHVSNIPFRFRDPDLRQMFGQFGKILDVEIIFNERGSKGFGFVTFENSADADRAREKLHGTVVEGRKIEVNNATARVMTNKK
Strand,RBNS enrichment (R)
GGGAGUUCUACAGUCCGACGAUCGGUGUUAGCGUCGUUUGCCUAGCAUCUGAUUUUCUGAUGUAACCAGGGUUUCACGCUGUUCUUUUCCUCUGAAGUAUGACAUUUCAUUGACACAUUUCGGUCCAGUGUAGUGGAAUUCUCGGGUGCCAA,0.303
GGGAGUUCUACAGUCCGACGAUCCUGCAUGAGAACUAUGCACUAAUCUAUCUGAAGAAAAAAAAAAACUAUAUCAACUUUGGUAUCUACUUUCCGUUUACUUCAAUCCUUGCCUUUUUGGUCAUUGUUAUAAUUGGAAUUCUCGGGUGCCAA,1.52
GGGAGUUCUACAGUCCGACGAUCAGAUGGUUGAAUGCGCUUGUACUAUAUGCUAAAAUAUGGAAAAGGAAAAAAAAAUCUCACAAGUUCUUUUGGAACUUGUUUCAAGCCAAAAACUCUCAAGAAAGCAAAUUUGGAAUUCUCGGGUGCCAA,0.299
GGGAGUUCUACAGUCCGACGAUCUUUCACUGUUCGAGGCACAUGGUUAUUGGCUAUCCAUUUAGUUUUCACAGAGGCUGACCACCUUACACUGCUGGGUGGUCACAACUGCUCACCAUGUGAACAUAGUACCUUGGAAUUCUCGGGUGCCAA,0.295
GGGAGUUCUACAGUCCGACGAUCAGAGGCAGGUCCCCCAGGCUGGGAUGCUGGCCCCUAGACUAGGGUGCUGACCCCUGGGCUGGGGUGCUGUGUGCUACCUCCCACUGUGAAAUCGCUGGUGCUCACAAUUGUGGAAUUCUCGGGUGCCAA,0.543
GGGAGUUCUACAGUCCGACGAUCAAGUUGAAAAUGGGACCACAGGGGCACAGGGCUACUGACCCUCACAGGGCAUGCCAGCGUUAACACCACUUUGAGAGACCAAUGGCAAGAAAUGCUGUCUCUUGUGCAUUUGGAAUUCUCGGGUGCCAA,0.544
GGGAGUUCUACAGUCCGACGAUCUCCGGCCCCGGUUCCCCUCAGGUCCCUGUGCUCUGGUCAUUGCAGUGAUGGCUCACUCAGACUGUCCUGGCAGCCAAAGUGACUUUCUGGAGCUCUGCUUGCCUGUCCCCUGGAAUUCUCGGGUGCCAA,0.265
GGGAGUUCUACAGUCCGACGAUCUGAAUCUGUACAGAGCCGUACAAACCGAAGUUCUGCCUCUGAUGUACUUUGUGAAUUUGUUUCUUUGAAUUUUCAUUUUUCAUUUAGUUUUCCUUGCAUACAAAUAAGCAUGGAAUUCUCGGGUGCCAA,1.91
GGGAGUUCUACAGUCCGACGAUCCCUAUCUCAGGGAUACUGGACUUGACGACACAGAUGAACAAUUAAAGUGGAAACCGCUUCCCUUUUCUCCUCUGUGGCAGUUACAAUUUUGACUUCAGGCCUGAGAAAAAUGGAAUUCUCGGGUGCCAA,0.222
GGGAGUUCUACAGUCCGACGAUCGGGGGUCUGCCUGCACACUCUGGGGAGCCAGGGGCCCCAGCACCCUCCAGGACAGGAGAUCUGGGAUGCCUGGCUGCUGGAGUACAUGUGUUCACAAGGGUUACUCCUCAUGGAAUUCUCGGGUGCCAA,0.378
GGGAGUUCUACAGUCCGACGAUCCCCCUCCUCCCUGCUCUCCCAGGCCCCUGCCACAGCCUCUUUCCGUCCCUCUCUUUCUGAUCCAGGCCCCUCAGUCCAAGCUUUGGAAAACCUUCACCUCAUCUUAAACCUGGAAUUCUCGGGUGCCAA,0.966
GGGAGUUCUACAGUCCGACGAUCUGUUUCAUGACCGCUUGUUUUUCUCCUUUUGGUGUAAUGUUUUACAAAUCCUUUGGCCUGAGAACUAAUAUGUUAAUUGCCUUAAAUAAAUUAAUAGAAAUCUAGUCCGUUGGAAUUCUCGGGUGCCAA,0.452

# Set 4 — technique: protein-binding microarray; molecule type: double-stranded DNA, one strand shown; medium: in vitro; concentration: not given; direction: higher = stronger binding
# Target: Transcription factor Sp1 (SP1, Homo sapiens, UniProt P08047, residues 1-785, full length assumed)
# Chain of UniProt P08047 (whole entry, looked up): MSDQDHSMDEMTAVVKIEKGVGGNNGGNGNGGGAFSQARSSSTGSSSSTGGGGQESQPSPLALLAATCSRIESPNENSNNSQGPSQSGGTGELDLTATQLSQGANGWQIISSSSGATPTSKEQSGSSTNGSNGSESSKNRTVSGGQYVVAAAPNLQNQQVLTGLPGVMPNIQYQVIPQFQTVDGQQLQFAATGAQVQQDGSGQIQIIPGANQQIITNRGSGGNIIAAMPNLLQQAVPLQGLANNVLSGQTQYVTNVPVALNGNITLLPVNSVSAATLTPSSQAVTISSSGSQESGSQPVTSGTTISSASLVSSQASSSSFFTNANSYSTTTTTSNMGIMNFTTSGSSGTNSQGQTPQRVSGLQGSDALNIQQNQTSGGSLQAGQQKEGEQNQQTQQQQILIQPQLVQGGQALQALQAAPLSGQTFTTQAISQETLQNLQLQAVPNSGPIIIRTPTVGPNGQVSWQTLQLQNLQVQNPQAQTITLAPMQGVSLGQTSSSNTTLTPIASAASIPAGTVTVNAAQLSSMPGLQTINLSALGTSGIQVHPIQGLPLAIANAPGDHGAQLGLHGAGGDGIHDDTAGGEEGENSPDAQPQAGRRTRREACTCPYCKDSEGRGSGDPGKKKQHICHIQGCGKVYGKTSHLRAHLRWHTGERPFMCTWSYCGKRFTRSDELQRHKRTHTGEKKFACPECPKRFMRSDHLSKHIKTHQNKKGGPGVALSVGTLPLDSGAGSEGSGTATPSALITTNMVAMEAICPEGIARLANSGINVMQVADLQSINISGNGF
# Setting: k-mer, scored over probes, only values ≥0.25
Strand,E-score
GGCGGGTA,0.287
CCCCTTGC,0.256
ACATGTAG,0.302
GGTGTGGA,0.263
CCTCGCCC,0.256
ATGTGGGC,0.258
GGGGCATA,0.277
CAGGTGGG,0.258
AATCAACA,0.272
ATTACCCC,0.301
CACCACCC,0.344
CATCCCCG,0.256
CCCCTTCC,0.265
ATATAAAC,0.259
TGGTACAA,0.269
GCCGCCCC,0.467
CCCCCGCC,0.372
CACGCCCA,0.467
CTCCTCCC,0.413
ACCCCAGT,0.269
AGGGGTTA,0.26
ATATCGCC,0.297

# Repeated from above (set 2):
Modification,mean fluorescence intensity [a.u.]
2'F-ANA at 1 2 3 4 5 14,40.6
2'F-ANA at 1 2 3 5 7 14 15,43.6
2'F-ANA at 1 2 3 4 5 11 12 14,47.3
2'F-ANA at 2 3 4 6 7 10,269
2'F-ANA at 2 3 6 7 8 9 10 13 14,267
2'F-ANA at 1 2 5 6 8 9 11 12 15,91.3
2'F-ANA at 2 3 4 5 6 10 11 12 13 15,52.6
2'F-ANA at 1 2 4 5 12,124
2'F-ANA at 3 4 7 9 14,322
2'F-ANA at 1 3 5 8 9 11 12 13,81.2
2'F-ANA at 1 2 4 5 9 10 11 13 14 15,49
2'F-ANA at 1 3 11 15,284
